Published values of several laboratories.
Every numbered part comes from another study and shows a few of its results, in no order. Substitutions count along the parent as printed.

Block 1
Target: CCNE2, cyclin fold, Cln2 fusion (human)
Technique: yeast growth competition, sequencing
Matrix: yeast
Setting: strong parent motif
Relative to: not given
Reading: higher = stronger binding
Parent: viral docking peptide; KGVKRKLFAEDSS
Variant	normalised enrichment score
KGVKRKLFAEKSS [D11K]	5.22
KGVKRKHFAEDSS [L7H]	0.229
KGVKRKLFAEDYS [S12Y]	6.67
KGVKRKLFAPDSS [E10P]	5.87
KGVKRKLFAEDDS [S12D]	7.16
KGVKWKLFAEDSS [R5W]	0.196
KLVKRKLFAEDSS [G2L]	4.88
KGVKRKLFAEDWS [S12W]	6.75
KGVKVKLFAEDSS [R5V]	0.631
KGVKRKLFAEDCS [S12C]	7.04
KGVKMKLFAEDSS [R5M]	0.713
KGVKEKLFAEDSS [R5E]	0.323
KIVKRKLFAEDSS [G2I]	4.48
KGVFRKLFAEDSS [K4F]	1.34
KGVKRKLFNEDSS [A9N]	6.19
KGVHRKLFAEDSS [K4H]	1.54
KGVQRKLFAEDSS [K4Q]	3.84

Block 2
Target: Phosphate system positive regulatory protein PHO4, full length, GST-tagged (PHO4, Saccharomyces cerevisiae, UniProt P07270, residues 1-312)
Technique: competition protein-binding microarray
Form: double-stranded DNA, one strand shown
Matrix: in vitro
Tested at: 2 µM
Setting: whole 60-bp probe, lowest competitor level
With: Cbf1 competitor, 0.05 µM
Reading: higher = stronger binding
Constant ends, left off below: … GTCTTGATTCGCTTGACGCTGCTG
Target sequence (chain): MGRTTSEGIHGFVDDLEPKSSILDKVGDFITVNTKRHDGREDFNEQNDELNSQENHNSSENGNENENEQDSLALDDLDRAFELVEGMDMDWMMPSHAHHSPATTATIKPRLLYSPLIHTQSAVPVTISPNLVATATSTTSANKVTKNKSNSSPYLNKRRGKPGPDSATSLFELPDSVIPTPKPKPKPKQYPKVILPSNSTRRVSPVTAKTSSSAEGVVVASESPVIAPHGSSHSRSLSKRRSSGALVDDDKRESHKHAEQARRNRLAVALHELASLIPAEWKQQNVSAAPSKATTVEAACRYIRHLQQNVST
Oligonucleotide	fluorescence intensity [a.u.]
AAAGCGGTAATTTGTCACTCAACTTCACATATCTAT	3700
TCCACCCATTGCTGCCGCGTGGACGCAGAATTTCCA	10400
AAATTACTAAGTTGGCTGGTGGGTGACGCCGTATGA	3990
GCCAATATCAAGAAAAACGTGTTGGGGGACGAAAAT	12600
CGGGGTTAAGTTTGTTCAGTGGGTGGCTTGCAGCAG	4980
TGCGCAACAACTTGTGCAGTGGGTGTATGTCTAGAA	6080
CTAACGAAGGTTTGGCGAGTGGGTGACAAGCCAAGT	3950
GTAGCCCCACAATTTCACCTGCCATATAACATAAGG	5170

Block 3
Target: HLA class I histocompatibility antigen, A alpha chain, allele A*80:01 (Homo sapiens, UniProt P04439)
Observed: peptide-MHC binding
Form: peptide
Tested at: concentration not given
Sequence	binding
HVTGRWNWW	inactive
YYSNKAYQY	inactive
DEYGPVFVE	inactive

Block 4
Target: Histone acetyltransferase KAT6A, winged helix 2, GST fusion (KAT6A, Homo sapiens, UniProt Q92794, residues 85-181)
Technique: protein binding microarray
Form: double-stranded DNA, one strand shown
Matrix: in vitro
Tested at: not given
Setting: 8-mer, flanks averaged, mean of 2 arrays, mostly near background
Relative to: not given
Reading: higher = stronger binding
Residues (chain): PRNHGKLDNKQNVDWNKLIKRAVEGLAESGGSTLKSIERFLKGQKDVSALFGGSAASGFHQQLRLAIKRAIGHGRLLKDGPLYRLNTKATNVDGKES
Oligonucleotide	E-score
GATCGGGA	0.0309
CGACTACC	-0.177
CGTCAACC	-0.158
ACATATTC	-0.107
ACGGATCG	-0.0495
CTATCAGA	-0.0215
TAACTCGA	0.158
GCGTGAAA	0.0395
